# Results collected from several papers.
# A part holds a random share of what one study measured.

# Block 1
# Target: Prothrombin, mature alpha-thrombin (F2, Homo sapiens, UniProt P00734)
# Method: aptamer microarray, sandwich
# Molecule type: DNA with 2'F-ANA
# Medium: in vitro
# Tested at: 200 nM
# Setting: whole 15-mer aptamer, many near background
# Added: Cy3 exosite-II aptamer, 400 nM
# Reading: higher = stronger binding
# Sequence: GGTTGGTGTGGTTGG
Modification,mean fluorescence intensity [a.u.]
2'F-ANA at 1 2 4 6 9 10 15,49.5
2'F-ANA at 1 3 4 6 8 9 10 11 12 13,64
2'F-ANA at 1 4 6 7 8 10 11 12 13,52.2
2'F-ANA at 2 3 7 10 12 15,489
2'F-ANA at 2 4 10 11 13 15,70.1
2'F-ANA at 2 4 7 13 14,114
2'F-ANA at 3 7 9 10 11,545
2'F-ANA at 2 3 4 5 9 11 12,165
2'F-ANA at 1 3 7 10 11 12 14,59.3
2'F-ANA at 2 4 5 6 10 11 15,56.2
2'F-ANA at 1 3 4 6 8 9 10 14 15,49
2'F-ANA at 1 4 9,127
2'F-ANA at 1 2 4 6 8 9 11,104
2'F-ANA at 1 4 11 12 14 15,57.7
2'F-ANA at 1 4 5 10 11 13 14,48.2
2'F-ANA at 2 4 5 6 7 8 10 12 13,49.4
2'F-ANA at 5 6 8 11 12 14 15,69.7
2'F-ANA at 1 3 5 6 9 12 13 15,93
2'F-ANA at 1 5 6 8 10 12 14 15,50.8
2'F-ANA at 3 5 6 8 9 14,62.4
2'F-ANA at 2 3 5 8 10 11 13,52.3
2'F-ANA at 1 4 5 7 8 9 11 12 14,44.8
2'F-ANA at 2 3 8 9 10 12 14,368
2'F-ANA at 2 3 4 6 9 12 13 14,222
2'F-ANA at 4 7 11 13,233

# Block 2
# Target: Ras GTPase-activating protein-binding protein 1, RRM domain (G3BP1, Homo sapiens, UniProt Q13283)
# Chain of UniProt Q13283 (whole entry, looked up): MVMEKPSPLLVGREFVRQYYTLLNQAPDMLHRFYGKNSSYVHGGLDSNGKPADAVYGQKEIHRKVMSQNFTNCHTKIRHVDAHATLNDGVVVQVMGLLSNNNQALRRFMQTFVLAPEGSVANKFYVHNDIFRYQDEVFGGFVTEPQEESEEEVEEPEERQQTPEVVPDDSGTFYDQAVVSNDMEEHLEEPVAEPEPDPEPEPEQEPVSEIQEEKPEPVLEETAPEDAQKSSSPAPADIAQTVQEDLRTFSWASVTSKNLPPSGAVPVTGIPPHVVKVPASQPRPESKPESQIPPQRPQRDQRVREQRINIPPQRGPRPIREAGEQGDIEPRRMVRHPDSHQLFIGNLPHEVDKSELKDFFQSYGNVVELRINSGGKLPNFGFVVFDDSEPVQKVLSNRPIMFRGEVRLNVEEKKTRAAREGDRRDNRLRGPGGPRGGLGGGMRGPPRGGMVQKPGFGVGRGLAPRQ
# Method: RNA Bind-n-Seq
# Molecule type: RNA
# Medium: in vitro
# Tested at: 1 µM
# Setting: whole 134-nt RNA, ends assumed
# Added: 150 mM KCl
# Relative to: input library
# Reading: higher = stronger binding
# All sequences stand within: GGGAGUUCUACAGUCCGACGAUC … UGGAAUUCUCGGGUGUCAAGG
Sequence,log2 enrichment
ACCAUGCAGGUGGGCAUCUUUGGGAAGUGGGGCAAGGGGGGGAUAGGGAAAAGGGUAACACUUUGGGAACAGGUGGUCCCAGGUCGUUUC,-0.365
CUCAAGUCCUGUGCUACACAUCGUAUGUACCGAAUCGGUUUGGAGGUUUUUGGAAAGUAUUAUGUUACGCCGUUCGGAUCUGCACUUCCA,-0.252
AGUCCUGUGCUACACAUCGUAUGUACCGAAUCAAAUUUAAAUUUUUAAACCCCCAAAAAAGUAUUAUGUUACGCCGUUCGGAUCUGCACU,-1.27
CAAGUCCUGUGCUACACAUCGUAUGUACCGAAUCGGAAAAAAAGGUUUGGAAAGGAAAGUAUUAUGUUACGCCGUUCGGAUCUGCACUUC,-0.31
GUCCUGUGCUACACAUCGUAUGUACCGAAUCGGGGAAAGGGGAAAAAAAGGGGUGGGGAAAGUAUUAUGUUACGCCGUUCGGAUCUGCAC,1.02
UCCUCAAGUCCUGUGCUACACAUCGUAUGUACCGAAUCGGAGGGAGGGGAGGAAAGUAUUAUGUUACGCCGUUCGGAUCUGCACUUCCAG,-0.169
AAGUCCUGUGCUACACAUCGUAUGUACCGAAUCGGGGUUUGGGGAGGGGAAAGGGGAAAGUAUUAUGUUACGCCGUUCGGAUCUGCACUU,1
CAAGUCCUGUGCUACACAUCGUAUGUACCGAAUCGGGUGGGUUUGGGAAAAAGGGAAAGUAUUAUGUUACGCCGUUCGGAUCUGCACUUC,0.935
CACAGACAACACGCACCCACACAGACACAGAGGGAAGGGGUUGGGAUGGGGUCAGGGUGCACAGCAGGGCGGGGUAGGACCCCAGCCCCU,0.134
UGGCAUGGAUCCAGUGGGCUGAGACCACCCUCAUUCAGCGGGAUCAGGAGCCAAUCCCGCAGAACAUUGACCGAGUUAAAGCCCUUAUCG,-0.277
AAGUCCUGUGCUACACAUCGUAUGUACCGAAUCGGUUUUUGGUUUUUGGUUUUUGGGAAAGUAUUAUGUUACGCCGUUCGGAUCUGCACU,-0.143
CACAGACAACACGCACCCACACAGUCACAGAGGGAAGGGGUUGGGAUGGGGACAGGGUGCACAGCAGGGCGGGGUAGGACCCCAGCCCCU,-0.129
ACCAUGCAGGUGGGCAUCUUUGGGAAGUGGGGCAAGGGGUGGAUAGGGAGGGGGGUAACACUUUGGGAACAGGUGGUCCCAGGUCGUUUC,-0.42
AAGUCCUGUGCUACACAUCGUAUGUACCGAAUCGGUUUUUUUGGAAAGGAAAAAGGAAAGUAUUAUGUUACGCCGUUCGGAUCUGCACUU,-0.181

# Block 3
# Target: Max dimerization protein 1, bHLH-zipper, MAX partner unstated (MXD1, Homo sapiens, UniProt Q05195, residues 56-136)
# Method: protein-binding microarray
# Molecule type: double-stranded DNA, one strand shown
# Medium: in vitro
# Tested at: not given
# Setting: k-mer, scored over probes, only values ≥0.25
# Reading: higher = stronger binding
# Residues (chain): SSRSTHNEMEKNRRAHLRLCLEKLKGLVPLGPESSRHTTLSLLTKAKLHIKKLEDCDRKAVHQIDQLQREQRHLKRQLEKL
Sequence,E-score
ATCTCGTG,0.3
CGATCCCC,0.281
ACATGCGT,0.431
CCCCGCGC,0.273
AACGTGCC,0.411
AAAAACGT,0.259
ACACGCTA,0.324
GGCACGCC,0.254
ACGTGATA,0.389
GCGTGATA,0.311
CGTGTCGC,0.328
ACATGCTA,0.372
ACGTGAGT,0.298
CCCCTCCA,0.341
ACGTGCTC,0.407
CCCCATGC,0.389
AATCACGT,0.414
AACACGTG,0.491
CGTTCTCC,0.284
ATGTGATA,0.285
CGCATGTC,0.444
CACGAGGG,0.445
ACGTGGGA,0.417
GCGTGGAA,0.35
CGTGACAC,0.275

# Block 4
# Target: RNA binding protein fox-1 homolog 2, RRM domain, GST-SBP tag (RBFOX2, Homo sapiens, UniProt O43251-10, residues 100-194)
# Method: RNA Bind-n-Seq
# Molecule type: RNA
# Medium: in vitro
# Tested at: 365 nM
# Setting: natural RNA segment, single round, ends assumed
# Relative to: no-protein control
# Reading: higher = stronger binding
# All sequences stand within: GGGAGUUCUACAGUCCGACGAUC … UGGAAUUCUCGGGUGCCAA
# Construct (chain): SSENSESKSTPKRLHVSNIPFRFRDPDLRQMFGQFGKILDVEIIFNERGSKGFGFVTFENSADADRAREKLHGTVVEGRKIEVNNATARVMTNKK
Sequence,RBNS enrichment (R)
GCUGAGAAGGAGAGUCACAGGUCCUGGAGAUAGAAAUGGAGGUGGCCUGCUGAUAAGAUACCUGCUGGUGAGCCCUGAUGUGGGACAUACGUGCAGAUAGGGGGCAGGGU,1.01
ACUUGUAGACAUUUAUUUAUACUGUGUCAUGUUUUAUAAUUUAUACAUAAAAUGUCUGGUUGACUGUAUACCUUGUUUUUGAAGAAAUUUAUUCGUGAAAGGAAGAGCAG,0.862
CUCAGUUCAUGAGAACCCAUUUCCCAGAGGUUCGUUUUGAGCCAAUAGCCUAUUUUGAACCAUUUGAACUGUAGAAAAAUGGCAAAUAUAUACUUACAUGUAUGUUCUUA,0.396
CUUUUCUACAGACCUCAUCACUGGAUUUGCCAACUAGAAUUCGAUUUCCUGUCAUAGGAAGCUCCUUGGAAGAAGGGAUGGGGGGAUGAGAUCAUGUUUACAGACCUGUU,0.399
AUAAUUGACUUAGUGAAAGACAGCUUCCCCUCUGUUUAGGUUCUCAGAUAUGUCCAGAGCAAAUUAGUCAUCCCCCGGUUGUGUUCAUAUUAACCACAAUCAUCUCUAGA,0.464
UGGCAUUCCUACCCUACAUCCUAUUUACCAGCAUACAUCAAACUGCUGCUGAUUUGAUUCCUCAAGAAAAUGAUUGGGGAAUAUUGUAGACUUCUUUUCCCUCCUAUUAA,0.385
AUCUGGAGUCCUUCAUGCCCAGGUCUGGAACCCAGGUUCUGACCCCAGGGCCCCACCCUGGGCUGGACAAUCAGAUCCCAAAGGAAUGCCAAAGGGGACUCGGUUGGGAG,0.451
CUGGUUGUUUCUGGUAUAGCUGUGCCACGAGAGCCCAGCUUGCUGUUGCUGCGGCCCUGGGGUUUAACCUCUUCCUGCCAGGAGCGGGACUAAUGCGCCGGGAAGGCUGG,0.568
UAUUGCCCCUGCUGAGGGGCUCCUGCCUAAGGAAGACAUGAUAUCCAGUAGACACAAGCAAGAAGACCACACUUCCCCCCGACACAGGAAAGCUGAGACAUUGUCCCCAA,0.361
GAUCUCAGCUCACUGGCAACAUCUGCCUCCCGGGUUCAAAUGAUUCUCCUGCCUCAGUCUCCUGAGUAGCUGGGAUUACAGGUGCCCGCCACCACGCUCAGCUAAUUUUU,0.227
CCCCCAGGUCAGGUCCGCGCCCUUUAAAUUGGCCGCUUGGCUUUUGCCUUUGGUCCUCUUGGACAGAGAGCAGGCUCAGGCCAUUGACAUCACAGUUCUUCCUUUUAACU,0.275
UGAAGAAAUCACUAUUGUGUAUAUACUCAAGUCUUUUUAUUUUUCCUCUUUUCAUAAAUGCUCUUGGACAUUAUUGGGCUUGCAGAGUUCCCUUAUUCUGGGGAUUACAA,0.929

# Excerpt of the above (block 1):
Modification,mean fluorescence intensity [a.u.]
2'F-ANA at 2 3 5 8 10 11 13,52.3
2'F-ANA at 1 4 11 12 14 15,57.7
2'F-ANA at 1 3 5 6 9 12 13 15,93
2'F-ANA at 2 4 7 13 14,114
2'F-ANA at 1 2 4 6 8 9 11,104
2'F-ANA at 5 6 8 11 12 14 15,69.7
2'F-ANA at 1 4 5 10 11 13 14,48.2
2'F-ANA at 3 7 9 10 11,545
2'F-ANA at 4 7 11 13,233
2'F-ANA at 1 3 4 6 8 9 10 14 15,49
2'F-ANA at 1 4 5 7 8 9 11 12 14,44.8
